Assay results gathered from unrelated publications.
Every numbered part comes from another study and shows a few of its results, in no order. Several values in a cell are separate wells, animals, samples, runs or records.
UniProt O75385, sequence (whole entry, looked up): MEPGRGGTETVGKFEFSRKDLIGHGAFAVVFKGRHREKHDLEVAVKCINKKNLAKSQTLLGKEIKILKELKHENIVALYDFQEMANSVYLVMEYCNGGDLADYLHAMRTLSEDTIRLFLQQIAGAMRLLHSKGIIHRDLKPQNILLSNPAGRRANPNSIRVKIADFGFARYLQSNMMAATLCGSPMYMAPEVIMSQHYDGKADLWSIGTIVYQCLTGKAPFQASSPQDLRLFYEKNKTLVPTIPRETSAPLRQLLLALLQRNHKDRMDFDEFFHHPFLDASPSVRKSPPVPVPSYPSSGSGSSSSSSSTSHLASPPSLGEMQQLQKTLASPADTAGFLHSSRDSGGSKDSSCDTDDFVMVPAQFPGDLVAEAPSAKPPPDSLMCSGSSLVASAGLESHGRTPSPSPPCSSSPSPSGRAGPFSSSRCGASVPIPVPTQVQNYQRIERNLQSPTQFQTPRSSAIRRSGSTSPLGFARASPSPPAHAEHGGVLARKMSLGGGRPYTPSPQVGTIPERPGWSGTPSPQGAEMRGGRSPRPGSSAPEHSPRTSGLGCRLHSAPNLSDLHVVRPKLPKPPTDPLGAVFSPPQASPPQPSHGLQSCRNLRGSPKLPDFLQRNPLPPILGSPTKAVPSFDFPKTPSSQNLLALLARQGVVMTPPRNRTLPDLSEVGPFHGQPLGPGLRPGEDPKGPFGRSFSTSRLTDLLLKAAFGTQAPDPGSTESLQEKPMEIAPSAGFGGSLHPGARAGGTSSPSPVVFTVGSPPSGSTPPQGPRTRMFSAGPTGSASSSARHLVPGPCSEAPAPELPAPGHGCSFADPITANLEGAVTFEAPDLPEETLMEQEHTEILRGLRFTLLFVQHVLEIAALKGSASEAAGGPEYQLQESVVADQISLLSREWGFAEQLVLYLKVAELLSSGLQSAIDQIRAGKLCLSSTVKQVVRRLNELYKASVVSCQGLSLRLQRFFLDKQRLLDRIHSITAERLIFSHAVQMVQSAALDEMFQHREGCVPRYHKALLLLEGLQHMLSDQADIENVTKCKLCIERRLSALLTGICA
UniProt Q9BYP7, sequence (whole entry, looked up): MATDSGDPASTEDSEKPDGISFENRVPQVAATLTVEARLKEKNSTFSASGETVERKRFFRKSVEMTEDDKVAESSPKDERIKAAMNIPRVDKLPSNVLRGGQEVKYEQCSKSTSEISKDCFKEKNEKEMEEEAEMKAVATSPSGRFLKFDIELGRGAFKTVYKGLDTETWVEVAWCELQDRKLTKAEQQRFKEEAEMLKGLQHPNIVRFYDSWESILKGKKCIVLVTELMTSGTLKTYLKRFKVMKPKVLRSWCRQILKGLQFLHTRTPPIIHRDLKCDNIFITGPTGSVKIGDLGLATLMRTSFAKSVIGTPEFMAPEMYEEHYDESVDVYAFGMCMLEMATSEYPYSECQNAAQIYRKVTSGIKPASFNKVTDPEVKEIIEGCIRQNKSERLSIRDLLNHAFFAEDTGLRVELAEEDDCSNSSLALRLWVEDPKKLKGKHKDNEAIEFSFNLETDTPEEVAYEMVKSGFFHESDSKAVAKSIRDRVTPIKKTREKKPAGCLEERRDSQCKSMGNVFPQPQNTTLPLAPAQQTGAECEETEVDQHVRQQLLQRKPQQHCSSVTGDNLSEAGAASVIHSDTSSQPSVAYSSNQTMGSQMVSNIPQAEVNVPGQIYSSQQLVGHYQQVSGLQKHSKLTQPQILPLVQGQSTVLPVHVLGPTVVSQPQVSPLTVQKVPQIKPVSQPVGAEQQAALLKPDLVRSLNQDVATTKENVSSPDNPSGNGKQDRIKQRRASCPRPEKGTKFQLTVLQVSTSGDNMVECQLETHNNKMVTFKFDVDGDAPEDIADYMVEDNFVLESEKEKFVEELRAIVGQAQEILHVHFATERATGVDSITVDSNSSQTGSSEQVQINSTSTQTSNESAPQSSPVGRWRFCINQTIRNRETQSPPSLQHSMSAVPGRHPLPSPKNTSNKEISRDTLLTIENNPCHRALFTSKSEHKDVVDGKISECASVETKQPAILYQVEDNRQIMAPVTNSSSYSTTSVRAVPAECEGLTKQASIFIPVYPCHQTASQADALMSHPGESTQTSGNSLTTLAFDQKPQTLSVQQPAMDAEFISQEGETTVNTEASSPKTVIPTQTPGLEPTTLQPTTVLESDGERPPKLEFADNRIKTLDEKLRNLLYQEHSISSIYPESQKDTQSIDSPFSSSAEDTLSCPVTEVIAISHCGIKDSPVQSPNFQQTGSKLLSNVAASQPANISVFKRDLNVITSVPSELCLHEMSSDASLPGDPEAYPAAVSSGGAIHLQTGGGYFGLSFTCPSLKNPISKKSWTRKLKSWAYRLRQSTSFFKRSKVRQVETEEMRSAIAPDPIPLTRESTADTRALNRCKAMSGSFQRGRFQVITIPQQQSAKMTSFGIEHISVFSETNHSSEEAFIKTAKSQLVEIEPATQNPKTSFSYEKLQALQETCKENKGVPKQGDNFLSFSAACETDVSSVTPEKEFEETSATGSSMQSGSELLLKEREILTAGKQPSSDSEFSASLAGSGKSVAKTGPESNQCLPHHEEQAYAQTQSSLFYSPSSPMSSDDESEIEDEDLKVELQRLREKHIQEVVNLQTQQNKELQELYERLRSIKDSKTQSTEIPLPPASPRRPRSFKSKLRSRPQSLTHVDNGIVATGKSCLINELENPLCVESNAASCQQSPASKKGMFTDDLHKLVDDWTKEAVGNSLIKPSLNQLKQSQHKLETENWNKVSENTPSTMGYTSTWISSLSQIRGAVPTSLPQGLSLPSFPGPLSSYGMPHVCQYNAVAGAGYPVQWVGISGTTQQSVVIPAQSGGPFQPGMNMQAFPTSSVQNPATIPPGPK
UniProt P16234, sequence (whole entry, looked up): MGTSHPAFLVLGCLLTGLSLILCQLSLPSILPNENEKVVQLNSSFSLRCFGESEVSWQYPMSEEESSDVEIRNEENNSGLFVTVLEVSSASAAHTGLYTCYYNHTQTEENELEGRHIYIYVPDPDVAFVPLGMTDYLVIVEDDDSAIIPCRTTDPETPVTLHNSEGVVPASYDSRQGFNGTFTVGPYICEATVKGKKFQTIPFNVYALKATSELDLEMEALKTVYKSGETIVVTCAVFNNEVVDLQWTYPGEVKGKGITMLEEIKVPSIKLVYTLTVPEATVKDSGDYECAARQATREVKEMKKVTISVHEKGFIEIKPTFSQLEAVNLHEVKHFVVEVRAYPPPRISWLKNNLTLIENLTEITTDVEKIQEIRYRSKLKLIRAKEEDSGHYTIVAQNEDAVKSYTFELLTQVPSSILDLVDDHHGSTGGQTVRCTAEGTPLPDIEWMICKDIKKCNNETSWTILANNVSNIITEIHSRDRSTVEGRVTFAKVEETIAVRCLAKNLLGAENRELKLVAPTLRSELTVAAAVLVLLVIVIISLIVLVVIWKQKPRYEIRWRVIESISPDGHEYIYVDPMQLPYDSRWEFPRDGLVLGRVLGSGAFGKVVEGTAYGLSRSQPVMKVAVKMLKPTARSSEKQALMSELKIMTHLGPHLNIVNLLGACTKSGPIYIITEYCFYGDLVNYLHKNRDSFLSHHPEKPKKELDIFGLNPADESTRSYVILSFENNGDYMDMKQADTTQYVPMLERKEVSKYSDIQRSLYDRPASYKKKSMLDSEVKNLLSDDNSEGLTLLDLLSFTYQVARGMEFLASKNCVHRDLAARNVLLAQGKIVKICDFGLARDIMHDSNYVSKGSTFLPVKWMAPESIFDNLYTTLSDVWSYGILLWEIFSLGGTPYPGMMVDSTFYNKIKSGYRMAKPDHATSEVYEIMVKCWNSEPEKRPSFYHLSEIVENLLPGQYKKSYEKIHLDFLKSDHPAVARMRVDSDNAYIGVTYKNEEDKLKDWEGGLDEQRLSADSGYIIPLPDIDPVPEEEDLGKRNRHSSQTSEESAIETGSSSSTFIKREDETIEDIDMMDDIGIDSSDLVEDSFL
UniProt Q05513, sequence (whole entry, looked up): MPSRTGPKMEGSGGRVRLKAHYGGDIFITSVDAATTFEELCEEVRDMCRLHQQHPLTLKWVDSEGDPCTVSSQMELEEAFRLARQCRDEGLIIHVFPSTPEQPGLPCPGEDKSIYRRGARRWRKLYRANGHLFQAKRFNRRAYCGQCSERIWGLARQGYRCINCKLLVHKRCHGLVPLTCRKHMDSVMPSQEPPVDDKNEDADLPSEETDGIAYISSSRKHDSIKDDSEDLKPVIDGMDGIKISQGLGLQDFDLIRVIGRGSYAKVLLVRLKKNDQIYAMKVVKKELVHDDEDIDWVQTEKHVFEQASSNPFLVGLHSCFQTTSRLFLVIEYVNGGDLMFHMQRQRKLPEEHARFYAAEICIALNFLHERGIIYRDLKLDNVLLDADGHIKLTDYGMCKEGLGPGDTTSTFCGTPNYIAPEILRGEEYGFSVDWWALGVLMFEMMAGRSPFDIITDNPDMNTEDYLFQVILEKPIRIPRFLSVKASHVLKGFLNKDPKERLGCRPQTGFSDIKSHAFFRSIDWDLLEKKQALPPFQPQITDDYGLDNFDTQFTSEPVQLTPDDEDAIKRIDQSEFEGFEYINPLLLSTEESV
UniProt Q9UQM7, sequence (whole entry, looked up): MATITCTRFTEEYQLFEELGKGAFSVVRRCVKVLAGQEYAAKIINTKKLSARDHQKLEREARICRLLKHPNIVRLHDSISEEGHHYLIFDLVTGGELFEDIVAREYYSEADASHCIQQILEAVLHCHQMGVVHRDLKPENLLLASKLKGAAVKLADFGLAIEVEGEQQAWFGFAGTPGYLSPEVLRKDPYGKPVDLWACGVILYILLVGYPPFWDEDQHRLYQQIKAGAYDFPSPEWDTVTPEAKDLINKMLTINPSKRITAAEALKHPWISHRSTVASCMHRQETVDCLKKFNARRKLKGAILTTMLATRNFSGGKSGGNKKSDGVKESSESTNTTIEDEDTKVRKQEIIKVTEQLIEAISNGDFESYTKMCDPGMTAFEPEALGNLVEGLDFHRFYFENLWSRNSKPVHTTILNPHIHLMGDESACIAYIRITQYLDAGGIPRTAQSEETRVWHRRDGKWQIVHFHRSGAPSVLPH

Block 1
SMILES: CC(C)(C)c1cc(C=C(C#N)C#N)cc(Br)c1O
Observed: enzyme activity
Mode: inhibitor
Tested at: 0.5 µM
| target | relative to | remaining activity [%] |
| --- | --- | --- |
| PRKCZ (Homo sapiens, UniProt Q05513) |  | 102 |
| WNK3 (Homo sapiens, UniProt Q9BYP7) |  | 106 |
| PDGFRA (Homo sapiens, UniProt P16234) | control | 95.4 |
| SYK (Homo sapiens, UniProt P43405) | control | 97.6 |
| CAMK2A (Homo sapiens, UniProt Q9UQM7) | control | 104 |
| ULK1 (Homo sapiens, UniProt O75385) |  | 88.2 |

Block 2
SMILES: CC[C@@H](C)c1nc2cc(Nc3ccnc4ccc(S(=O)(=O)C(C)C)cc34)ccc2s1.Cl
Method: CCK-8
| cell line | tested at | together with | survival |
| --- | --- | --- | --- |
| L929 RIPK3-/- reexpressing RIPK3 K51A/R69H | 12.5 µM |  | 88.6% and 93.7% and 92.1% and 92.3% and 93.5% |
| L929 RIPK3-/- reexpressing RIPK3 K51A/R69H | 25 µM |  | 80.9% and 91.8% and 90.9% and 77.9% and 73.1% |
| L929 RIPK3-/- reexpressing RIPK3 K51A | 6.25 µM |  | 88% and 102% and 94.3% and 89.1% and 90.6% |
| L929 RIPK3-/- reexpressing RIPK3 K51A/R69H | 3.125 µM |  | 97.6% and 98.6% and 89.1% |
| L929 RIPK3-/- reexpressing RIPK3 K51A/R69H | 50 µM |  | 33% and 32.7% and 35.5% and 30.9% and 42.2% |
| L929 RIPK3-/- reexpressing RIPK3 K51A | 3.125 µM |  | 97.1% and 102% and 95% and 98.8% and 88.6% |
| L929 RIPK3-/- reexpressing RIPK3 K51A | 50 µM | zVAD | 27.3% and 27.5% and 51.6% and 49.8% |
| L929 RIPK3-/- reexpressing RIPK3 K51A/R69H | 50 µM | zVAD | 33.5% and 31.3% and 42.5% and 32% |

Block 3
Cell line: mouse MPNST tumor cells
Method: high-content immunofluorescence imaging
Measured: nuclear SOX9
Tested at: 10 µM
Time: 12 h
Notes: mean of 2 replicates
Relative to: DMSO control
Reading: higher = more nuclear SOX9
| Compound | nuclear SOX9 intensity |
| --- | --- |
| O=C(NCCN1CCC2(CC1)C(=O)NCN2c1cccc(F)c1)c1ccc(F)c(F)c1 | 132 % of DMSO |
| O=C(N[C@H]1CN2CCC1CC2)c1ccc2c(c1)OCCO2 | 96.1 % of DMSO |
| C=CCC1(CC(C)C)C(=O)NC(=O)NC1=O | 102 % of DMSO |
| CC(C)=CCCN1CCC(NC(=O)[C@](O)(c2ccccc2)C2CCCC2)CC1 | 120 % of DMSO |

Single results of other studies
Species: mouse
Matrix: microsomes or S9
Tested at: 2 µM
Time: 0.5 h
| SMILES | remaining compound [%] |
| --- | --- |
| C=C[C@H]1C[N@+]2(Cc3cc(C(C)(C)C)c(OC)c(C(C)(C)C)c3)CC[C@H]1C[C@H]2[C@H](O)c1ccnc2ccccc12 | 42.2 |
| Cc1nc(NCCc2c[nH]cn2)cc([C@H]2C[C@@H](O)C2)n1 | > 99 |
